Experimental data of several laboratories.
± gives the spread as reported. Converted amounts (≈) assume the structure as drawn.

| SMILES | test | test system | setting | how to read | endpoint | result |
| --- | --- | --- | --- | --- | --- | --- |
| COc1cc2c3c(c(=O)oc2c(C2OCCCO2)c1O)CN(C)CC3 | HPLC | RPMI medium | concentration not given, 96 h, 37 °C |  | acetal hydrolysis | ~70% |
| Cc1cccc(Cn2cc(CO)c3cnccc32)c1 |  | male F344 rat, liver | oral, 100 mg/kg/day, 2 days | direction not given | liver histopathology score | 0 |
| O=C(c1cccnc1-c1ccncc1)N1CCC(O)(Cc2ccccc2)CC1 |  | healthy Japanese adults, plasma | oral, 100 mg twice daily, day 7 |  | AUCtau/dose | 2.24 ng·h/mL/mg |
| CSc1ccccc1C(=O)NCCn1cc(C(=O)NCc2cccc(C)n2)c(=O)c2cc3c(cc21)OC(F)(F)O3 |  | Sprague-Dawley rat, male, plasma | intravenous, 5 mg/kg of parent drug |  | half-life | 0.89 ± 0.5 h |
| COc1cc(Nc2ncc3c(n2)-c2ccc(Cl)cc2C(c2c(F)cccc2OC)=NC3)ccc1C(=O)O |  | cancer patients | oral, dose not given, grade 1 any attribution, added: pembrolizumab |  | patients with muscle weakness | 21% |
| N#Cc1cccc(-c2ccc3ncc(-c4cc(F)cc(F)c4)c(N4CCC(N)CC4)c3c2)c1O |  | healthy male, urine | oral, 20 mg, 72 h, 14C-labelled | relative to: dose | radioactivity recovered | 1.3% |
| COc1cc2nccc(Oc3ccc(NC(=O)c4cc5c(n(-c6ccccc6)c4=O)CCCC5=O)nc3)c2cc1OC |  | human, relapsed/refractory AML | oral, 3 mg once daily, grade ≥3, any causality |  | patients with decreased platelet | 10% |
| Cc1ccc(C(=O)N(CCCN)C(c2nc3snc(C)c3c(=O)n2Cc2ccccc2)C(C)C)cc1 (centres unmarked) |  | human patients | intravenous, 18 mg/day |  | grade ≥3 dysphagia patients | 0% |
| CC(C)(C(=O)N1CCOc2c(C#N)cncc2C1)C(F)F | measured: Investigations | human | oral, 20 mg once daily, 14 days, multiple ascending dose |  | subjects with adverse event | 0% |
| OC[C@H]1O[C@@H](c2ccc(F)c(Cc3cc4ccccc4s3)c2)[C@H](O)[C@@H](O)[C@@H]1O |  | Japanese patients, type 1 diabetes | oral, 25 mg/day, onset day 8 | relative to: patients | hypoglycaemia-related adverse event | 4% |
| Cc1ccc([C@@H]2O[C@H](CO)[C@@H](O)[C@H](O)[C@H]2O)cc1Cc1ccc(-c2ccc(F)cc2)s1 |  | Japanese type 2 diabetes patients | 25 mg, day 5, 24 h urine collection | relative to: baseline | urinary chloride excretion change | 13.8 mEq |
| Cc1nc2cccc(OCC(C)(C)C(=O)NC(C)C)c2c(N)c1C(=O)O |  | Sprague-Dawley rat, female, plasma | oral, 100 mg/kg, day 7 over day 1, 7-day repeated dosing | relative to: day 7 over day 1 | Cmax ratio | 0.71 ± 0.38 |
| O=C(Cc1ccc2ccccc2c1)Nc1cc(C2CCC2)[nH]n1 |  | mouse plasma | 375 ng/mL, -80 °C, freeze-thaw stability, added: 3 freeze-thaw cycles |  | measured mean concentration | 375.7 ± 0.3 ng/mL |
| CNC(=O)c1cc(Oc2ccc(NC(=O)Nc3cc(C(C)(C)C)nn3-c3ccc4ncccc4c3)c(F)c2)ccn1 | measured: worst grade 1 | human | oral, dose not given, cycles 1 and 2, Medium AUC(0-4 h) subgroup |  | patients with visual abnormality AE | 29% |
| CN(CCCN1CCN(C(=O)CN2CCN(CC(=O)[O-])CCN(CC(=O)[O-])CCN(CC(=O)[O-])CC2)CC1)c1ccc2nccc(C(=O)NCC(=O)N3CC(F)(F)C[C@H]3C#N)c2c1.[68Ga+3] |  | mice, HT-1080.hFAP and HT-1080 wild-type xenografts, blood | iv, 500 pmol, 1 h post injection |  | uptake | 0.6 ± 0.1 %IA/g |
| C[C@H](CCC(=O)O)[C@H]1CC[C@H]2[C@@H]3[C@H](O)C[C@@H]4C[C@H](O)CC[C@]4(C)[C@H]3C[C@H](O)[C@]12C |  | human, plasma | endogenous control diurnal | relative to: daily mean concentration | relative peak deviation | 91.1 ± 21.6% |
| FC(F)(F)c1ccc(CNc2ccc(Cc3c[nH]c4ncc(Cl)cc34)cn2)cn1 | measured: neutropenia | patients with advanced solid tumours | oral, dose not given, phase Ib, related to compound |  | adverse events, all grades | 26% |
| O=C(N/N=C/c1ccccc1O)c1ccncc1 |  | ADS buffer | 115 µM, 12 h, 5 °C, post-preparative, autosampler |  | stability | 99.9% |

| SMILES | test | test system | setting | how to read | endpoint | result |
| --- | --- | --- | --- | --- | --- | --- |
| O=C1CCCCN1c1ccc(CO[C@@H]2COc3nc([N+](=O)[O-])cn3C2)cc1 |  | aqueous buffer | pH 7.4 |  | aqueous solubility | 28.7 µg/mL (≈ 77.1 µM) |
| Cl.[2H]C([2H])([2H])CC(=O)c1cnc(NC(=O)C2CC2)cc1Nc1cccc(-c2ncn(C([2H])([2H])[2H])n2)c1OC | median | human | oral, 40 mg twice daily, day 1, fed, liquid, multiple dose |  | Tmax | 2.08 h |
| Nc1nc2c(nc([N+](=O)[O-])n2[C@@H]2O[C@H](CO)[C@@H](O)[C@H]2O)c(=O)[nH]1 | depurination, RP-HPLC | citrate-phosphate buffer 0.5 mM | 2700 min, pH 5, 37 °C |  | nucleoside remaining fraction | 0.235 |
| O=C(O)CCCOc1ccc([18F])cc1-c1cc(-c2ccccc2C(F)(F)F)n(-c2ccccc2)n1 | gamma counting | male ddY mice, spleen | intravenous, 2.1 MBq, 5 min |  | radioactivity uptake | 0.45 ± 0.16 SUV |
| COc1ncc(-c2nc3c(n2C(C)C)[C@H](c2ccc(Cl)cc2)N(c2cc(Cl)cn(C)c2=O)C3=O)c(OC)n1 | LC-MS/MS | human, plasma | oral, 20 mg, cycle 1 day 14, low-dose arm |  | Cmax | 176 ng/mL |
| COc1ccccc1OCCNCC(O)COc1cccc2[nH]c3ccccc3c12 (centres unmarked) |  | 0.2% w/v mucin | 8 h |  | steady-state concentration | ~140 µg/mL |
| Cc1cc(-c2nccc3c2ccn3CC(=O)Nc2ccc(-c3cnccn3)cn2)ccn1 |  | healthy human volunteers | oral, 40 mg single dose, single ascending dose |  | nervous system TEAEs | 16.7% |
| C[C@H]1O[C@@H](O[C@H]2CC[C@@]3(C)[C@@H](CC[C@]4(C)[C@@H]3C=C[C@]35OC[C@@]6(CCC(C)(C)C[C@H]63)[C@@H](O)C[C@]54C)[C@]2(C)CO)[C@H](O)[C@@H](O[C@@H]2O[C@H](CO)[C@@H](O)[C@H](O)[C@H]2O)[C@H]1O | UHPLC-MS/MS | mouse, plasma | oral, 50 mg/kg, 8 h |  | plasma concentration | 0 ng/mL |
| Cc1cc(C)c(CNC(=O)c2cc(Cl)c3c(c2C)O[C@@](C)([C@H]2CC[C@H](N(C)C)CC2)O3)c(=O)[nH]1 | ultracentrifugation | solution, alpha-1 acid glycoprotein, 0.1% | 3000 ng/mL, 160 min |  | unbound fraction | 0.152 |
| C=CCN1CC(=O)N2[C@@H](Cc3ccc(O)cc3F)C(=O)N(Cc3cccc(N4CC(N5CCN(CC)CC5)C4)n3)C[C@@H]2N1C(=O)NCc1ccccc1 |  | advanced solid tumour patients | oral, 80 mg twice daily, any grade, dose-escalation |  | treatment-related diarrhoea | 0% |
| CCn1ncc2c1-c1cnc(N)c(c1)O[C@H](C)c1cc(F)ccc1-c1nn(C)nc1C2 |  | female athymic nude mice, sample A PDX | oral, 0.04 mg/kg once daily for 1 days, 1 h |  | unbound plasma concentration | 4.3 ± 0.3 nM |
| COc1nnc2ccc(N3CCC(c4ccc(OCCN5CCN(C)C(=O)[C@H]5C)cc4)CC3)nn12 |  | patients, plasma | oral, 10 mg twice daily, single dose, monotherapy |  | terminal half-life | 1.77 h |
| CCN1CCN(Cc2ccc(Nc3ncc(F)c(-c4cc(F)c5nc(C)n(C(C)C)c5c4)n3)nc2)CC1 | population PK model | human, plasma | oral |  | maximum absorption rate | 94.1 µmol/h |
| O=C(O)CCCCCCCCC(=O)O |  | human, plasma | endogenous baseline diurnal | relative to: daily mean concentration | relative peak deviation | 56.1 ± 9.4% |
| COc1ccc2[nH]c([S+]([O-])Cc3ncc(C)c(OC)c3C)nc2c1 (centres unmarked) |  | healthy Chinese volunteers, CYP2C19 poor metabolizers | oral, 20 mg, enteric-coated tablets |  | t1/2 | 2.24 ± 0.42 h |
| CCc1cc(C(=O)NC)c2nccc(N3CCc4c(cc(Cn5ccnc5)cc4-c4cn(C)nc4C(F)(F)F)C3=O)c2c1 |  | Sprague Dawley rat | oral, 100 mg/kg twice daily, 7 days |  | spleen weight | 0.526 ± 0.106 g |
| O=C(Nc1nc2cccc(-c3ccc(CN4CCS(=O)(=O)CC4)cc3)n2n1)C1CC1 | measured: vertigo | rheumatoid arthritis patients | oral, 150 mg once daily, 4 weeks, any relatedness |  | treatment-emergent adverse events | 0% |

Some of these lines once more:
| SMILES | test | test system | setting | how to read | endpoint | result |
| --- | --- | --- | --- | --- | --- | --- |
| C[C@H]1O[C@@H](O[C@H]2CC[C@@]3(C)[C@@H](CC[C@]4(C)[C@@H]3C=C[C@]35OC[C@@]6(CCC(C)(C)C[C@H]63)[C@@H](O)C[C@]54C)[C@]2(C)CO)[C@H](O)[C@@H](O[C@@H]2O[C@H](CO)[C@@H](O)[C@H](O)[C@H]2O)[C@H]1O | UHPLC-MS/MS | mouse, plasma | oral, 50 mg/kg, 8 h |  | plasma concentration | 0 ng/mL |
| OC[C@H]1O[C@@H](c2ccc(F)c(Cc3cc4ccccc4s3)c2)[C@H](O)[C@@H](O)[C@@H]1O |  | Japanese patients, type 1 diabetes | oral, 25 mg/day, onset day 8 | relative to: patients | hypoglycaemia-related adverse event | 4% |
